Measured values of several laboratories.
Compare with care: the assays were run in different laboratories. ± marks the error that the study gave.
Organism: Salmonella typhimurium

For CN(CC(C)(C)C)N=O, “revertant colonies per plate” read 167 ± 14 (mutagenicity, Ames plate incorporation; TA100; 500 µg/plate, without S9, methanol).
With N#C[C@@]1(n2ccc(N)nc2=O)O[C@H](CO)[C@@H](O)[C@H]1O the viability was 106% (TA1535; 5 µM, without S9).
OC(CCN1CC=C(c2ccc(F)cc2)CC1)c1ccc(F)c2ccccc12 (stereo not drawn) has a survival of 91.1% (SOS/umu test; TA1535/pSK1002; 0.008 mg/mL, 4 h, without S9, lower range).
COc1cccc(-c2n[nH]c(SCc3ccccn3)n2)c1OC: “revertant colonies per plate” 9 (Ames test, preincubation; TA1537; 0.063 mg/plate, without S9).
For O=[N+]([O-])c1ccc(NC2CCNCC2)c(C(F)(F)F)c1, the survival was 143% (SOS/umu test; TA1535/pSK1002; 0.004 mg/mL, 4 h, without S9, full range).
The revertant ratio of Cc1cc(C(=O)NC(C)(C)COc2cccc3c2C(N)=NS(=O)(=O)N3)cc(C)n1 is reported as 1.3 (Ames test, initial; TA100; 1500 µg/plate, together with: rat liver S9; reference: solvent control).
Under “revertant colonies per plate”, COCCN(CCOC)N=O is recorded as 14 ± 5 (mutagenicity, Ames plate incorporation; TA1537; 1500 µg/plate, 3 d, without S9, methanol).
The induction factor of Fc1ccc(C2=CCNCC2)cc1 is reported as 1.2 (genotoxicity, SOS/umu test; TA1535/pSK1002; 0.016 mg/mL, 4 h, with S9, full range).
CNC(=O)c1c(N(C)N=O)ncn1C — result for “revertant colonies per plate”: 198 ± 22 (plate incorporation; TA100, water; 150 µg/plate, without S9).
Under “fold increase in revertants”, CC(=O)N1CCC(C(=O)N2CCN3C(=O)c4cc(-c5ccccc5)ccc4NC(=O)C3C2)CC1 (stereo not drawn) is recorded as 1 (TA1537; 5.0 µg/plate; reference: vehicle).
The induction factor of O=[N+]([O-])c1ccc(N2CCC(NCCC(O)c3ccc(F)c4ccccc34)CC2)c(C(F)(F)F)c1 (stereo not drawn) is reported as 0.6 (SOS response, SOS/umu test; TA1535/pSK1002, TGA medium; 1.53e-05 mg/mL, 4 h, without S9; reference: untreated).
O=NN1CCN(C2CCCC2)CC1: “revertant colonies per plate” 20.3 ± 6 (mutagenicity, Ames plate incorporation; TA1535; 2500 µg/plate, 3 d, without S9, methanol).

Some of these lines once more:
The induction factor of Fc1ccc(C2=CCNCC2)cc1 is reported as 1.2 (genotoxicity, SOS/umu test; TA1535/pSK1002; 0.016 mg/mL, 4 h, with S9, full range).
CNC(=O)c1c(N(C)N=O)ncn1C — result for “revertant colonies per plate”: 198 ± 22 (plate incorporation; TA100, water; 150 µg/plate, without S9).
